Published values pooled from the literature.
Each line is one published result; not all experiments were run side by side. Numbers after ± are the reported error.

`COc1cccc(/C=C/C(=O)/C=C/c2cccc(OC)c2OC)c1OC` gave an IC50 of 2.5 µM (SGC-7901; cell growth or viability, MTT; 72 h).
The IC50 of `CS(=O)(=O)CCNCc1ccc(-c2ccc3ncnc(Nc4ccc(OCc5cccc(F)c5)c(Cl)c4)c3c2)o1` is reported as 5.99 µM (human Epithelial cell; cell growth or viability, CCK-8; 72 h).
With `COc1ccc(C[C@H]2COC(=O)[C@@H]2Cc2ccc(OCc3cn(CC(=O)NO)nn3)c(OC)c2)cc1OC` the IC50 was over 5 µM (Kasumi 1; cell growth or viability, CCK-8; 48 h).
With `C[C@]1(N)C(=O)c2cc(F)ccc2O[C@@H]1CC(=O)NC12CC3CC(CC(C3)C1)C2` the IC50 was over 50 µM (PC-3M; cell growth or viability, SRB; 96 h).
`COc1cc2ncnc(Nc3ccc(F)c(Cl)c3)c2cc1NC(=O)N/N=C/c1ccc(CN2CCOCC2)cc1` has an IC50 of over 100 µM (NCI-H1975; cell growth or viability, MTT; 72 h).
`CC[n+]1c(/C=C/C=C2/N(C)c3ccccc3C2(C)C)sc2ccccc21` has an IC50 of 8.06 ± 0.88 µM (human MSC hMSC-OD1; cell viability, CCK-8; 48 h, osteogenic differentiation day 1).
`C=CC(=O)Nc1cc(Nc2nccc(-c3cn(C)c4ccccc34)n2)c(OC)cc1N(C)CCN(C)C` has an IC50 of 0.21 µM (NCI-H1975; cell growth or viability, MTT; 72 h).
`COc1cc(O)c2c(c1)O[C@H](c1ccc(O)cc1)CC2=O` gave an IC50 of 22.3 µM (BV-2; TNF-alpha release, ELISA; 24 h, together with: LPS 10 µg/mL + nicotine 1 µM).
With `O=C(O)c1ccc(CO)cc1` the IC50 was over 20 µM (BV-2; NO release, inhibitor, Griess; LPS-stimulated).
`Cc1cc(-c2ccccc2)c2ccc3c(-c4ccccc4)cc(C)nc3c2n1` has an IC50 of over 100 µM (A549, B16-F10, Caco-2, HT-29, MDA-MB-231; cell viability; dark, all lines).
`CCNC(=O)Nc1ccc(S(=O)(=O)Oc2cccnc2Br)cc1` has an IC50 of 3.3 µM (HT-1080; cell growth or viability, SRB; 48 h).
For `Cc1ccc(/C=C/C(=O)C(=CC2=CC=C[CH]2[Fe][CH]2C=CC=C2)C(=O)/C=C/c2ccc(C)c(C)c2)cc1C` (stereo not drawn), the IC50 was 59.1 µM (RKO; cell growth or viability, MTT).
`CO[C@@]12[C@H](COC(N)=O)C3=C(C(=O)C(C)=C(N)C3=O)N1C[C@@H]1N[C@@H]12` gave an IC50 of 3.53 µg/mL (HCT-15; cell growth or viability, XTT; 72 h).
With `O=C(NCCCl)Nc1ccc(S(=O)(=O)Oc2cccnc2Br)cc1` the IC50 was 3.8 µM (HT-1080; cell growth or viability, SRB; 48 h).
For `C[C@]1([N+](=O)[O-])C(=O)c2ccc(F)cc2O[C@@H]1CC(=O)NC12CC3CC(CC(C3)C1)C2`, the IC50 was 12.5 µM (PC-3M; cell growth or viability, SRB; 96 h).
`CNC(=O)c1cc(Oc2ccc(NC(=O)Nc3ccc(Cl)c(C(F)(F)F)c3)cc2)ccn1` gave an IC50 of 0.36 µM (MHCC97H cells; cell viability, MTT; concentration not given, together with: pralatrexate 0.5).
For `O=C(O)Cc1ccccc1Nc1c(Cl)cccc1Cl.O=C(O)Cc1ccccc1Nc1c(Cl)cccc1Cl.c1cnc2c(c1)ccc1cccnc12.c1cnc2c(c1)ccc1cccnc12`, the IC50 was 2.95 ± 0.37 µM (CAL-27; cell viability, MTT; 48 h).
The IC50 of `CCN(CC)c1ccc(/C=N/NC(=O)Nc2cc3c(Nc4ccc(F)c(Cl)c4)ncnc3cc2O[C@H]2CCOC2)cc1` is reported as 10.6 µM (NCI-H1975; cell growth or viability, MTT; 72 h).
The IC50 of `CCNC(=O)Nc1ccc(S(=O)(=O)Oc2cnccc2C)cc1` is reported as 9.4 µM (HT-1080; cell growth or viability, SRB; 48 h).
For `COc1ccc(C[C@H]2COC(=O)[C@@H]2Cc2ccc(OCCCCC(=O)NO)c(OC)c2)cc1OC`, the IC50 was over 5 µM (Kasumi 1; cell growth or viability, CCK-8; 48 h).
For `CC1(C)CCC2=CC(=O)CC(=O)C2C1` (stereo not drawn), the IC50 was 4.48 µM (rat Synovial cell; cell growth or viability, CCK-8; 48 h).
`O=C(N/N=C/c1cnc(N2CCCC2)nc1)Nc1cc2c(Nc3ccc(F)c(Cl)c3)ncnc2cc1O[C@H]1CCOC1` has an IC50 of 1.72 µM (NCI-H1975; cell growth or viability, MTT; 72 h).
`O=C(COc1ccc(-c2nc3ccc(F)cc3[nH]2)cc1)N1CCOCC1` has an IC50 of 30.3 µM (DND41; cell growth or viability, MTS; 72 h).
For `COc1cc(O)c2c(=O)c(O)c(-c3ccc(O)c(O)c3)oc2c1`, the IC50 was 28.7 µM (BV-2; TNF-α release, inhibitor, ELISA; LPS-stimulated).
`Cc1ccc(-c2c3n(c4c(=O)[nH]nc(O)c24)CCn2cccc2-3)cc1` has an IC50 of 53.2 µM (PC-3; cell growth or viability, MTT; 48 h).
With `O=c1[nH]cc(F)c(=O)[nH]1` the IC50 was 31 µM (MDA-MB-435S; cell growth or viability, MTT; 72 h).
With `CSc1cc(Oc2ccnc3[nH]c(=O)cnc23)ccc1NC(=O)Nc1cc(C(C)(C)C)nn1-c1ccc(C)cc1` the IC50 was 0.005 ± 0.002 µM (WM 266-4; ERK1/2 phosphorylation, inhibitor, cell-based ELISA; 6 h).
For `O=S(=O)(c1cccc2cnccc12)N1CCCNCC1`, the IC50 was 1.6 µM (N-SMC; cell growth, CCK-8; 24 h, hypoxia 0.1% O2).
For `O=C(Cc1ccc(C(F)(F)F)cc1)Nc1nc2ccccc2n1Cc1ccc(Br)cc1`, the IC50 was 1.53 ± 0.78 µM (MDA-MB-231-HRE-Luc cells; HIF reporter gene, inhibitor; 24 h, hypoxia 1% O2).
For `CN1CCC2(CC1)C/C(=N\N=C\c1ccc(Cl)cc1)c1ccccc1O2`, the IC50 was 2.02 to 23.2 µM (MCF7, HCT-116, PC-3, A549; cell growth, MTT; range over cell lines).
The IC50 of `COc1cc2ncnc(Nc3ccc(F)c(Cl)c3)c2cc1NC(=O)N/N=C/c1ccc(CN2CCN(C)CC2)cc1` is reported as 15.3 µM (NCI-H1975; cell growth or viability, MTT; 72 h).
With `Nc1cc(C(F)(F)F)c(-c2cc(N3CCOCC3)nc(N3CCOCC3)n2)cn1` the IC50 was 1 to 2 µM (glioma cell lines; cell viability, CellTiter-Blue; 72 h, all lines).
`CCC(=O)c1cc(O)c2ccccc2c1O` gave an IC50 of over 10 µM (HS27; cell growth or viability, MTS; 72 h).
With `COc1cc(/C=C/C(=O)/C(=C/C2=CC=C[CH]2[Fe][CH]2C=CC=C2)C(=O)/C=C/c2ccc(O)cc2)ccc1O` (stereo not drawn) the IC50 was 11.9 µM (RKO; cell growth or viability, MTT).
The IC50 of `COc1c(O)cc2cc1C[C@@H](C)C[C@H](OC)[C@H](O)[C@@H](C)/C=C(\C)[C@H](OC(N)=O)[C@@H](OC)CC/C=C(\C)C(=O)N2` is reported as 0.28 µM (Kasumi 1; cell growth or viability).
`COc1ccc(C[C@H]2COC(=O)[C@@H]2Cc2ccc(OCc3cn(CC(=O)Nc4ccccc4N)nn3)c(OC)c2)cc1OC` gave an IC50 of over 5 µM (Kasumi 1; cell growth or viability, CCK-8; 48 h).
`CCOC(=O)OCOc1c(-c2ccc(-c3ccc(OC(F)(F)F)cc3)cc2)c(C)nc2cc(OC)c(Cl)cc12` has an IC50 of 19 µM (HeLa and HCT-116 average; cell viability, MTT; 48 h).
With `CCN(CC)CCCOc1ccc(/C=N/NC(=O)Nc2cc3c(Nc4ccc(F)c(Cl)c4)ncnc3cc2O[C@H]2CCOC2)cc1` the IC50 was 1.53 µM (NCI-H1975; cell growth or viability, MTT; 72 h).
`COc1cccc2c1C(=O)c1c(O)c3c(c(O)c1C2=O)C[C@@](O)(C(=O)CO)C[C@@H]3O[C@H]1C[C@H](N)[C@@H](O)[C@H](C)O1` has an IC50 of 1.98 µg/mL (HCT-15; cell growth or viability, XTT; 72 h).
For `CCN(CC)CCOc1ccc(-c2nc3ccccc3[nH]2)cc1`, the IC50 was 47 µM (DND41; cell growth or viability, MTS; 72 h).
The IC50 of `COc1cc(/C=C/C(=O)N2CCC=CC2=O)cc(OC)c1OC` is reported as 1.4 µM (MEF/GFP-Stat3α; anchorage-independent colony growth).
With `CN(C)c1ccc(/C=N/NC(=O)Nc2cc3c(Nc4ccc(F)c(Cl)c4)ncnc3cc2O[C@H]2CCOC2)s1` the IC50 was 60.3 µM (NCI-H1975; cell growth or viability, MTT; 72 h).
With `β-secretase inhibitor IV` the IC50 was 0.092 µM (H4 overexpressing human APP Swedish; Abeta38 formation; 24 h).
`Cc1ccc2nc(NCCN)c3ncc(C)n3c2c1` has an IC50 of 7.1 ± 1.8 µM (SGC-7901; cell viability, MTT; 72 h).
With `c1ccc2[nH]c(-c3ccc(OCCN4CCOCC4)cc3)nc2c1` the IC50 was 42.9 µM (DND41; cell growth or viability, MTS; 72 h).

A few entries again:
For `O=S(=O)(c1cccc2cnccc12)N1CCCNCC1`, the IC50 was 1.6 µM (N-SMC; cell growth, CCK-8; 24 h, hypoxia 0.1% O2).
`CO[C@@]12[C@H](COC(N)=O)C3=C(C(=O)C(C)=C(N)C3=O)N1C[C@@H]1N[C@@H]12` gave an IC50 of 3.53 µg/mL (HCT-15; cell growth or viability, XTT; 72 h).
With `COc1ccc(C[C@H]2COC(=O)[C@@H]2Cc2ccc(OCc3cn(CC(=O)NO)nn3)c(OC)c2)cc1OC` the IC50 was over 5 µM (Kasumi 1; cell growth or viability, CCK-8; 48 h).
With `C[C@]1(N)C(=O)c2cc(F)ccc2O[C@@H]1CC(=O)NC12CC3CC(CC(C3)C1)C2` the IC50 was over 50 µM (PC-3M; cell growth or viability, SRB; 96 h).
For `Cc1ccc(/C=C/C(=O)C(=CC2=CC=C[CH]2[Fe][CH]2C=CC=C2)C(=O)/C=C/c2ccc(C)c(C)c2)cc1C` (stereo not drawn), the IC50 was 59.1 µM (RKO; cell growth or viability, MTT).
The IC50 of `CCN(CC)c1ccc(/C=N/NC(=O)Nc2cc3c(Nc4ccc(F)c(Cl)c4)ncnc3cc2O[C@H]2CCOC2)cc1` is reported as 10.6 µM (NCI-H1975; cell growth or viability, MTT; 72 h).
With `CCN(CC)CCCOc1ccc(/C=N/NC(=O)Nc2cc3c(Nc4ccc(F)c(Cl)c4)ncnc3cc2O[C@H]2CCOC2)cc1` the IC50 was 1.53 µM (NCI-H1975; cell growth or viability, MTT; 72 h).
